Measurements gathered from unrelated publications.
Lines come from different studies, so protocols differ. Values joined by “and” are separate records of one study, mostly repeats; a detail may differ. ± marks the error that the study gave.

Cn1cc(-c2ccc(-c3cncc(Cl)c3N3CCC4(CCNC4=O)CC3)cc2)cn1  log2 fold change (COLO 205; gene expression, microarray, item: NRF1 mRNA; concentration not given, 6 h; baseline: untreated cells): -2.24
N=C(N)NCCC[C@@H](NC(=O)CCOCCOCCNC(=O)[C@H](CCCCNC(=O)CC[C@H](NC(=O)c1ccc(NCc2cnc3nc(N)[nH]c(=O)c3n2)cc1)C(=O)O)NC(=O)CO/N=C/[C@H](F)[C@@H](O)[C@H](O)[C@H](O)CO)C(=O)NCC(=O)N[C@H](CC(=O)O)C(N)=O [fluorine-18 labelled]  Kd (RGD-binding integrins; binding, saturation binding; MDA-MB-231; 60 min, 4 °C): 0.051 µM
C=CCC(=O)OC/C1=C/C[C@@H](/C(C)=C/c2csc(C)n2)OC(=O)C[C@H](O)[C@@](C)(CC=C)C(=O)[C@H](C)[C@@H](O)[C@@H](C)CCC1  EC50 (tubulin; tubulin assembly, stimulator; cell-free): 0.88 ± 0.06 µM
Cc1cccc(N2CC(C(=O)O)CC2=O)c1 (stereo not shown)  fold enrichment (human THEMIS domain; binding, affinity selection mass spectrometry; baseline: other proteins in batch): 1.01
CN1Cc2cc(Cl)ccc2-n2c(nnc2[C@H]2CC[C@H](Oc3ccccn3)CC2)C1  tracer uptake (vasopressin V1A receptor, mouse; liver uptake of [11C] tracer, blocker, PET imaging; CD-1 mice; i.v., 3 mg/kg, 5 min before tracer): decreased
CSc1cc(Oc2ccnc3[nH]c(=O)cnc23)ccc1NC(=O)Nc1cc(C(C)(C)C)nn1-c1ccccc1  phospho ratio (patient-derived cell line clone; RPPA, item: phospho ribosomal protein S6; human; 1 µM, 4 h; baseline: DMSO): 0.2
Cc1ccc(N2CC(C(N)=O)CC2=O)cc1 (stereo not shown)  log fold enrichment (human THEMIS domain; binding, affinity selection mass spectrometry; baseline: other proteins in batch): 0
NCCC(=O)N[C@@H](Cc1cnc[nH]1)C(=O)O  log2 fold change (binding, MIDAS equilibrium dialysis LC-MS; A2AR-BRIL thermostabilized; concentration not given; baseline: no-protein control): -0.191
CC(C)C[C@H](NC(=O)C[C@H](O)[C@H](CC(C)C)NC(=O)[C@H](Cc1c[nH]cn1)NC(=O)CNC(=O)[C@@H](NC(=O)[C@H](C)NC(=O)[C@H](Cc1c[nH]c2ccccc12)NC(=O)[C@H](CCC(N)=O)NC(=O)[C@@H](Cc1ccccc1)NC(=O)COCCOCCNC(=O)CCC(C(=O)O)N1CCN(CC(=O)O)CCN(CC(=O)O)CCN(CC(=O)O)CC1)C(C)C)C(N)=O (stereo partly shown) [lutetium-177 labelled]  tissue uptake (BALB/c nu/nu mice, large intestine; 50 pmol, 1 h, with: PA 300 µg): 1.7 ± 0.4 %ID/g
CC[S+]([O-])c1nc(-c2ccccc2)cc(C(F)(F)F)n1 (stereo not shown)  cells with nuclear reporter (transportin-1/2; FUS nuclear import, high content imaging; HeLa Kyoto reporter; 0.5 µM, 2 h): 94.3% and 94.8%
COCCc1ccc2cc(C(=O)NS(=O)(=O)c3ccccc3-c3ccccc3)oc2c1  IC50 (estrogen receptor alpha, human; reporter gene; MCF7-MVLN; 24 h): > 15.6 µM
O=C(NCC1CCOCC1)c1n[nH]cc1NC(=O)c1c(F)cccc1F  remaining binding (human FLT3 ITD F691L; scanMAX; 1 µM; baseline: control): 86%
CCS(=O)(=O)c1nc(C2CC2)cc(C(F)(F)F)n1  cells with nuclear reporter (transportin-1/2; FUS nuclear import, high content imaging; HeLa Kyoto reporter; 0.158 µM, 2 h): 93.5% and 91.9%
Cc1ccc(Nc2nccc(N(C)c3ccc4c(C)n(C)nc4c3)n2)cc1S(N)(=O)=O  inhibition (CK1 (yeast); kinase activity, inhibitor; 0.3 µM): 29%
CC(=O)N[C@H](C(=O)N1C[C@H](O)C[C@H]1C(=O)NCc1ccc(-c2scnc2C)cc1)C(C)(C)SCCCCCCNC(=O)C[C@@H]1N=C(c2ccc(Cl)cc2)c2c(sc(C)c2C)-n2c(C)nnc21  relative protein abundance (plectin (human); TMT proteomics; HeLa; 3 µM, 24 h; baseline: DMSO): 1.05
O=C(C#Cc1cn(Cc2ccccc2)c(=O)[nH]c1=O)NCc1ccccc1  remaining MMP-3 activity (MMP-3; inhibitor, colorimetric; 20 µM): 96 ± 4%
CC(=O)NCCCC[C@H](NC(=O)CNC(=O)[C@H](CCCNC(=N)N)NC(C)=O)C(=O)Nc1ccc2c(C)cc(=O)oc2c1  kcat (human Y386F mutant enzyme; substrate, fluorogenic): 0.06 ± 0.02 s⁻¹
O=C(NS(=O)(=O)c1ccccc1-c1ccccc1)c1cc2ccc(N3CCOCC3)cc2o1  IC50 (estrogen receptor alpha, human; reporter gene; MCF7-MVLN; 24 h): > 20 µM
O=C(O)CCCOc1cccc(CNC(=O)C#Cc2cn(Cc3ccc(C(=O)O)cc3)c(=O)[nH]c2=O)c1  remaining MMP-7 activity (MMP-7; inhibitor, FRET; 10 µM): 104 ± 2%
CCCCCCCC(=O)OC[C@H](COP(=O)(O)O[C@@H]1[C@H](O)[C@H](O)[C@@H](OP(=O)(O)O)[C@H](OP(=O)(O)O)[C@H]1O)OC(=O)CCCCCCC  maximal open probability (Kv7.2/Kv7.3(EEE) mutant channel; activator; model 4, E2 and E3 fixed to wild type): 0.816
Nc1ncnc2c1ncn2[C@@H]1O[C@H](COP(=O)(O)O)[C@@H](O)[C@H]1O  log2 fold change (binding, MIDAS equilibrium dialysis LC-MS; A2AR-BRIL thermostabilized; concentration not given; baseline: no-protein control): -0.124
Cc1cc(F)cc2c(CCC(=O)N[C@@H]3C(=O)NC[C@H]3O)c(-c3ccc(F)cc3)[nH]c12  inhibition (GABAA chloride channel, TBOB site; binding; 10 µM): -5%

Some of these lines once more:
CN1Cc2cc(Cl)ccc2-n2c(nnc2[C@H]2CC[C@H](Oc3ccccn3)CC2)C1  tracer uptake (vasopressin V1A receptor, mouse; liver uptake of [11C] tracer, blocker, PET imaging; CD-1 mice; i.v., 3 mg/kg, 5 min before tracer): decreased
Cn1cc(-c2ccc(-c3cncc(Cl)c3N3CCC4(CCNC4=O)CC3)cc2)cn1  log2 fold change (COLO 205; gene expression, microarray, item: NRF1 mRNA; concentration not given, 6 h; baseline: untreated cells): -2.24
Cc1ccc(Nc2nccc(N(C)c3ccc4c(C)n(C)nc4c3)n2)cc1S(N)(=O)=O  inhibition (CK1 (yeast); kinase activity, inhibitor; 0.3 µM): 29%
CC(C)C[C@H](NC(=O)C[C@H](O)[C@H](CC(C)C)NC(=O)[C@H](Cc1c[nH]cn1)NC(=O)CNC(=O)[C@@H](NC(=O)[C@H](C)NC(=O)[C@H](Cc1c[nH]c2ccccc12)NC(=O)[C@H](CCC(N)=O)NC(=O)[C@@H](Cc1ccccc1)NC(=O)COCCOCCNC(=O)CCC(C(=O)O)N1CCN(CC(=O)O)CCN(CC(=O)O)CCN(CC(=O)O)CC1)C(C)C)C(N)=O (stereo partly shown) [lutetium-177 labelled]  tissue uptake (BALB/c nu/nu mice, large intestine; 50 pmol, 1 h, with: PA 300 µg): 1.7 ± 0.4 %ID/g
